Measured values collected from several papers.
Every numbered part comes from another study and shows a few of its results, in no order. ± marks the error that the study gave.
Chain of UniProt Q02779 (whole entry, looked up): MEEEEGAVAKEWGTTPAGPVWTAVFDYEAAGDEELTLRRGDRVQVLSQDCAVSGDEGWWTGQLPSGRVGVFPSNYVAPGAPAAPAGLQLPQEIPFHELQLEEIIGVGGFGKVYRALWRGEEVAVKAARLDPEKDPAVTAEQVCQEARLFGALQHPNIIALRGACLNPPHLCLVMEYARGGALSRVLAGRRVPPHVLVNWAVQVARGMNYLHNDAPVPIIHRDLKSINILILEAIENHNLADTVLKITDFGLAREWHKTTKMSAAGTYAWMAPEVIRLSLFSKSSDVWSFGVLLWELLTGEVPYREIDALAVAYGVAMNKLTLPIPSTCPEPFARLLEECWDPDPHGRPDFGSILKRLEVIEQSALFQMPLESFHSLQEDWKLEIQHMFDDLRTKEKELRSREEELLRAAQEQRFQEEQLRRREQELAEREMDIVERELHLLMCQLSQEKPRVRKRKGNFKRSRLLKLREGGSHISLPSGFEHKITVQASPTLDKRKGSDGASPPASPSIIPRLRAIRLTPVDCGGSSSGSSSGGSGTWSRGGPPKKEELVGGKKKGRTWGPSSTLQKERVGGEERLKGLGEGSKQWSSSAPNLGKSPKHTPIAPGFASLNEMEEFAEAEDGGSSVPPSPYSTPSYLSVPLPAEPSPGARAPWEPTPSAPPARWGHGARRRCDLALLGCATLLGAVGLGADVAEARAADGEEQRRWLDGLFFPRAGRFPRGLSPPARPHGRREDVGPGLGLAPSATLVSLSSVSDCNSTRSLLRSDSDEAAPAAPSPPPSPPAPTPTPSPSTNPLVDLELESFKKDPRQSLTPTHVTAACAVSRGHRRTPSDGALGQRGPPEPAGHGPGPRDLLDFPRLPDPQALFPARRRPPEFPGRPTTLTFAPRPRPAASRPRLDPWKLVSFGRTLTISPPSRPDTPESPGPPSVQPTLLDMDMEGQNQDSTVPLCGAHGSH
Chain of UniProt P29317 (whole entry, looked up): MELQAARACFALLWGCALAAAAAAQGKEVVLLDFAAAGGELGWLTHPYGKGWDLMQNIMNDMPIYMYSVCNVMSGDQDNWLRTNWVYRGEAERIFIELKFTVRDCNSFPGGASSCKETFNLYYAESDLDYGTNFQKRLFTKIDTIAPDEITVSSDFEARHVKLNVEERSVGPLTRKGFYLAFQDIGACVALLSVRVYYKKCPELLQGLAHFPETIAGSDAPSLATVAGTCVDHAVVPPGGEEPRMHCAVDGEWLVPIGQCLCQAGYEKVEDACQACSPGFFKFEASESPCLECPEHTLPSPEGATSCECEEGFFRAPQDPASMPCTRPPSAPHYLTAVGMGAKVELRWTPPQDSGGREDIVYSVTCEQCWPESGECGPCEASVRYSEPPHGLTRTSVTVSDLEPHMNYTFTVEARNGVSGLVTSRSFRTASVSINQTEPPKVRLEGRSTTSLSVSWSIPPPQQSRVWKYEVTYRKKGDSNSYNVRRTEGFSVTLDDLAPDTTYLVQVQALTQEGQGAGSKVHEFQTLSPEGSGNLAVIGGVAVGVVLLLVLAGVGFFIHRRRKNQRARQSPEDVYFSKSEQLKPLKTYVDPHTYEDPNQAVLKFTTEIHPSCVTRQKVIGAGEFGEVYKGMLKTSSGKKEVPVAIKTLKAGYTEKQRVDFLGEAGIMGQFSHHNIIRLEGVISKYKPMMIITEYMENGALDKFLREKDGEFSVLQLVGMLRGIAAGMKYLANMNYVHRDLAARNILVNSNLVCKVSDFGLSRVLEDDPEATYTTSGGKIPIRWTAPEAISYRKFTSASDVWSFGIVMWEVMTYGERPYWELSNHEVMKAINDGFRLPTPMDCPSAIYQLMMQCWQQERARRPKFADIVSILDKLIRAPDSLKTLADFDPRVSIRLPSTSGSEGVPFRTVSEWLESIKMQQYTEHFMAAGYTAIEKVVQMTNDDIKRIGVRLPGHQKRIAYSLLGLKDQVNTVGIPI
Chain of UniProt P41743 (whole entry, looked up): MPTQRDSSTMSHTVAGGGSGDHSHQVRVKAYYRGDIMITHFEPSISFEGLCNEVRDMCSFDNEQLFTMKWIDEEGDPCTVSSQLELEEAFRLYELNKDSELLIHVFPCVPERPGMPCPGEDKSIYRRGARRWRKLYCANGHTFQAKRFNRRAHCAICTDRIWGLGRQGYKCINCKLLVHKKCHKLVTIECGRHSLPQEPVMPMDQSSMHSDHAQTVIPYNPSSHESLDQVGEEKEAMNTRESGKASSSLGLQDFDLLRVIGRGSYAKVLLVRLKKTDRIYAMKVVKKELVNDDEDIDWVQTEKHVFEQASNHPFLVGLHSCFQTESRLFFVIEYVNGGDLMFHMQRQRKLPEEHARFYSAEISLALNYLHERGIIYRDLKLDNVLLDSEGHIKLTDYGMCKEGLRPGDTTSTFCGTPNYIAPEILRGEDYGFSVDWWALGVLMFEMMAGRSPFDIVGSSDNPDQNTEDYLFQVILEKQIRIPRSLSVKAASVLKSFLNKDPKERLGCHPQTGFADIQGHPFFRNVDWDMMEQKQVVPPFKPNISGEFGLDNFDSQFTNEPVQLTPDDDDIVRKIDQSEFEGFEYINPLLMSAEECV
Chain of UniProt Q9NWZ3 (whole entry, looked up): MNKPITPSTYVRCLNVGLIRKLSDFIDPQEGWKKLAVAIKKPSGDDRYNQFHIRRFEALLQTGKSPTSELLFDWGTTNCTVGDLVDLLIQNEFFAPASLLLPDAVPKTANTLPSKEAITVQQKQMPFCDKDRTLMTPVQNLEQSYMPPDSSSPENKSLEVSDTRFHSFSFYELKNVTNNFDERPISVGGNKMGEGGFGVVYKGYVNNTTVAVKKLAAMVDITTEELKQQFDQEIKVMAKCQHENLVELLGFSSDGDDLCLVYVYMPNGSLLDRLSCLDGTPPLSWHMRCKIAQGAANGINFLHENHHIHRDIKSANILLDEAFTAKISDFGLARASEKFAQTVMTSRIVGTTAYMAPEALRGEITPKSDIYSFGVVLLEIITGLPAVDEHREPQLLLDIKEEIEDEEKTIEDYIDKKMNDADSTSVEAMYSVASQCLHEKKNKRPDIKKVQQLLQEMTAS
Chain of UniProt P42338 (whole entry, looked up): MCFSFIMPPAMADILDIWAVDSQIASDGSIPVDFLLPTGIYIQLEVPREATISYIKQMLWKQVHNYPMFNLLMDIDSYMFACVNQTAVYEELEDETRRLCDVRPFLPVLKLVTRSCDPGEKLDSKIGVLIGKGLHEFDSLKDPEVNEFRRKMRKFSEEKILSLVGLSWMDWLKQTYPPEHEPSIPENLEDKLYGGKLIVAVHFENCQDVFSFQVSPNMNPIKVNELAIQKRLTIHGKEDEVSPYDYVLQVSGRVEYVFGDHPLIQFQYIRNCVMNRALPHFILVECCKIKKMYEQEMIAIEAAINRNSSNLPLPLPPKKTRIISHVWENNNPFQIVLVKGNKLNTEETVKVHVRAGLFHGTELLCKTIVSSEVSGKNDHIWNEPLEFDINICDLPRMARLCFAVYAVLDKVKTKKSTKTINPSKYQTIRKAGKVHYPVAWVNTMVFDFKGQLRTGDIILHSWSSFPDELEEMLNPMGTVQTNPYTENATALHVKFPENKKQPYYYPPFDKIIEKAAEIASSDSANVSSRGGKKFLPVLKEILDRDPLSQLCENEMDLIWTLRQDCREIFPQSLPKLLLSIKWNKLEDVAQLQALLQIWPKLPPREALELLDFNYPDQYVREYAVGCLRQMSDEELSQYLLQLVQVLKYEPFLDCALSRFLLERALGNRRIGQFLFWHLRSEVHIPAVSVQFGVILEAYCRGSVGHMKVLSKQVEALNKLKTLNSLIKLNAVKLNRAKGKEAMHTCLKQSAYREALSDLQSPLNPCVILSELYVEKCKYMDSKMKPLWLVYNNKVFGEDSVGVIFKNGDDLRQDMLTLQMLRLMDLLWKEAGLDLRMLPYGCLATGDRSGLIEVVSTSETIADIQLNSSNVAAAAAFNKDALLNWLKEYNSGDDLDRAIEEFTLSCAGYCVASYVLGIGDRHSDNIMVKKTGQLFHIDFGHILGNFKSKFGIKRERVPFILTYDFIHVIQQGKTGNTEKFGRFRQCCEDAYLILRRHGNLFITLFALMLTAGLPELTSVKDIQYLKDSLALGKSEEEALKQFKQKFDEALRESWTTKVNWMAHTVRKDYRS
Chain of UniProt P52564 (whole entry, looked up): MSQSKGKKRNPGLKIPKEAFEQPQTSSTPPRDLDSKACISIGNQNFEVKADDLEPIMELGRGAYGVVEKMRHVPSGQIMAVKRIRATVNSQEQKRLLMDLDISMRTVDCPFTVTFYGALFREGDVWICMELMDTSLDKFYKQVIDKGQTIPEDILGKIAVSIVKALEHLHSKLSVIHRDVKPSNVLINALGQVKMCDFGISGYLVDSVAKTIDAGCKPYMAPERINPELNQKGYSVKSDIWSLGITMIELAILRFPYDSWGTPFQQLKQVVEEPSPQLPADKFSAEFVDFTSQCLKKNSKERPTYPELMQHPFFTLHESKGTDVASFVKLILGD
Chain of UniProt Q13976 (whole entry, looked up): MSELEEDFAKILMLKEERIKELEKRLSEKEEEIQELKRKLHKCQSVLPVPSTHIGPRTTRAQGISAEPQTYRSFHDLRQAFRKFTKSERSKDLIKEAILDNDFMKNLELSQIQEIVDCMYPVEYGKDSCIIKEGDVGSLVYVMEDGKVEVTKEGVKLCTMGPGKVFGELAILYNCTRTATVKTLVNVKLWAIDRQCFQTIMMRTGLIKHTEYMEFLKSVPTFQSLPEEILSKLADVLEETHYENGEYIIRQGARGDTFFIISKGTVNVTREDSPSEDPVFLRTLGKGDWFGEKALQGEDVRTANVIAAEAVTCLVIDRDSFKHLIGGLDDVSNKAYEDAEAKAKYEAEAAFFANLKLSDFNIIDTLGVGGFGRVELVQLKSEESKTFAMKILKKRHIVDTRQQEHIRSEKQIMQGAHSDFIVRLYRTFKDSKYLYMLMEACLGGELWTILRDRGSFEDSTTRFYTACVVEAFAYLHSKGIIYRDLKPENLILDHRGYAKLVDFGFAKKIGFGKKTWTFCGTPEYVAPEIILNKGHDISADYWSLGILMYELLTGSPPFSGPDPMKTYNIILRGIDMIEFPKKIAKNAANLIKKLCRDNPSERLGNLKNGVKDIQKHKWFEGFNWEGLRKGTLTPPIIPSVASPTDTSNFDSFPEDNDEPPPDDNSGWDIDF

Sample 1 — SMILES: O=c1cc(N2CCOCC2)oc2c1ccc1ccccc12; read-out: enzyme activity; mode: inhibitor; tested at: 0.5 µM; relative to: control
For MAP2K6 (Homo sapiens, UniProt P52564): remaining activity read 94.1%.
For CHEK1 (Homo sapiens, UniProt O14757): remaining activity read 104%.
It gave 97.4% for remaining activity (MAPK12 (Homo sapiens, UniProt P53778)).
For MAP3K10 (Homo sapiens, UniProt Q02779): remaining activity read 102%.
It gave 105% for remaining activity (KIT (Homo sapiens, UniProt P10721)).
MKNK2 (Homo sapiens, UniProt Q9HBH9) — remaining activity: 88.5%.
IRAK4 (Homo sapiens, UniProt Q9NWZ3) — remaining activity: 122%.
PRKG1 (Homo sapiens, UniProt Q13976) — remaining activity: 94.6%.
The remaining activity was 102% (LYN (Homo sapiens, UniProt P07948)).
The remaining activity was 99.1% (Cyclin-dependent kinase 9, with cyclin T1 (CDK9, Homo sapiens, UniProt P50750)).
For PRKCI (Homo sapiens, UniProt P41743): remaining activity read 95.5%.

Sample 2 — read-out: cell-free assay; method: competition with immobilised ligand; tested at: 1 µM
SMILES: COc1cc(-c2cn(C3CCc4c(F)cccc4N(CC(F)(F)F)C3=O)nn2)ccc1-n1cnc(C)c1 (centres unmarked)
EPHA2 (Homo sapiens, UniProt P29317) — remaining binding: 100%.
PIK3CB (Homo sapiens, UniProt P42338) — remaining binding: 100%.
The remaining binding was 85% (Tyrosine-protein kinase ABL1, non-phosphorylated (ABL1, Homo sapiens, UniProt P00519, T315I)).

Sample 3 — method: competition protein-binding microarray; molecule type: double-stranded DNA, one strand shown; medium: in vitro; tested at: 2 µM; together with: Cbf1 competitor, 0.05 µM; reading: higher = stronger binding; shared flanks, not repeated: … GTCTTGATTCGCTTGACGCTGCTG
Target: Phosphate system positive regulatory protein PHO4, full length, GST-tagged (PHO4, Saccharomyces cerevisiae, UniProt P07270, residues 1-312)
Setting: whole 60-bp probe, lowest competitor level
Construct (chain): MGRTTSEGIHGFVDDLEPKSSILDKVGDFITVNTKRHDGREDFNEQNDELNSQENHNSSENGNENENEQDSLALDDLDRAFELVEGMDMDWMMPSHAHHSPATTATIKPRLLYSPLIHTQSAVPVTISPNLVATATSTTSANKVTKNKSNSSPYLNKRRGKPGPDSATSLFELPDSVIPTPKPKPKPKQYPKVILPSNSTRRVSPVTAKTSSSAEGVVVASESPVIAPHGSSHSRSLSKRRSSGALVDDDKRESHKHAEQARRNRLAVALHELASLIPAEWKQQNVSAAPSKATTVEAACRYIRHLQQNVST
For `CGTTCATTATCGCCCAATGTGACGGACAATCTCGGC`, the fluorescence intensity was 4950 a.u.
`GTCGAAAAACCTCCGCACGGCAGAAGTGTTATGCTG` gave a fluorescence intensity of 5530 a.u.
The fluorescence intensity of `CTTCTGTAAATTTGGCTAGTGGGTGGACGCGCCCCG` is reported as 4040 a.u.
`CTTCTGTAAATTTAACACGTGTTTTGACGCGCCCCG` has a fluorescence intensity of 17700 a.u.
`CTTTCCCGATCTTGTCACGCCACTTTAGCACATTTG` gave a fluorescence intensity of 5770 a.u.
The fluorescence intensity of `TTTCAATTCTATCTTACTTTTCATTGCCATTTTACT` is reported as 3290 a.u.
The fluorescence intensity of `CTTCTGTAAATTTGCTGAGTGGGTGGACGCGCCCCG` is reported as 3980 a.u.
The fluorescence intensity of `GAAATAAAGGGAACACACGTGAAATTGAAGGACAGC` is reported as 12300 a.u.

Other studies, line by line
`OCCN1CCN(CCCN2c3ccccc3Sc3ccc(Cl)cc32)CC1`: “blood urea nitrogen” 26.7 ± 2.4 mg/dL (mouse, serum; dose not given).

Repeated from above (sample 3):
The fluorescence intensity of `CTTCTGTAAATTTGGCTAGTGGGTGGACGCGCCCCG` is reported as 4040 a.u.
`GTCGAAAAACCTCCGCACGGCAGAAGTGTTATGCTG` gave a fluorescence intensity of 5530 a.u.
